Measured values of several laboratories.
Every numbered part comes from another study and shows a few of its results, in no order.

Series 1
Target: Sal-like protein 4, full length isoform B (SALL4, Homo sapiens, UniProt Q9UJQ4-2, residues 1-616)
Technique: universal PBM
Form: double-stranded DNA, one strand shown
Matrix: in vitro
Concentration: not given
Setting: 8-mer, flanks averaged, mean of replicates
Direction: higher = stronger binding
Construct (chain): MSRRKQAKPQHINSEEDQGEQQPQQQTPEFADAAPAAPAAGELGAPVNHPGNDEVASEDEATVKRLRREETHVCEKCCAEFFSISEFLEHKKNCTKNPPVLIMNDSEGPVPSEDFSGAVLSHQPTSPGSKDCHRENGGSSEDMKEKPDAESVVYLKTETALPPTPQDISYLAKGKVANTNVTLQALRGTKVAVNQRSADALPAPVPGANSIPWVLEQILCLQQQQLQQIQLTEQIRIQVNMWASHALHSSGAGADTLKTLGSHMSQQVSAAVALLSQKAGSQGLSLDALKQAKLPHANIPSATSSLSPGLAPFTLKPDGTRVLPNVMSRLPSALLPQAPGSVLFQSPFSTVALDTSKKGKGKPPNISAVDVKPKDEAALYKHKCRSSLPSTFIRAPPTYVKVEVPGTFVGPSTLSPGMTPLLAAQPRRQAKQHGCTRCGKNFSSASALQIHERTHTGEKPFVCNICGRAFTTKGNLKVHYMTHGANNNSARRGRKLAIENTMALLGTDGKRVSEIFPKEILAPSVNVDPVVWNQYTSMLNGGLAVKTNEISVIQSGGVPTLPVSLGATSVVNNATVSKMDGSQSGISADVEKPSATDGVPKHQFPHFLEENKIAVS
Oligonucleotide | E-score
CCATCCGA | 0.00496
CAATAATC | 0.291
AGTGACAT | 0.157
GTTGCCCA | -0.0865
AAGGACTC | 0.00377
ATCCATAG | 0.146
CCCCGAGC | -0.266
CGTGGGCC | -0.294

Series 2
Target: Interferon regulatory factor 5, full length, phosphomimetic (IRF5, Homo sapiens, UniProt Q13568-2, residues 1-514, K96S/S451D/S453D/S456D/S462D)
Technique: protein-binding microarray
Form: double-stranded DNA, one strand shown
Matrix: in vitro
Concentration: 250 nM
Setting: 60-bp whole probe
Added: salmon DNA 0.4 mg/ml
Reference: random background probes
Direction: higher = stronger binding
Shared flanks, not repeated: GCCTAGCAC … GTCTTGATTCGCTTGACGCTGCTG
Oligonucleotide | log fluorescence
GTAGGTTTCGACACTGGGTTAGTGCTA | 5.31 z-score
TGAGGACTGCTTATCCTTTAGTGCTAG | -0.294 z-score
GACGATCTCAGTATCGATACGTGCTAG | 6.8 z-score
GACGGATTGCTTATCCTGACGTGCTAG | -0.424 z-score
TTAGGTTTCCTTTCCATTTAGTGCTAG | 2 z-score
TCATCTCTTGTTCTCTCACTGTGCTAG | 0.744 z-score
TTAGATCTCCTTCTCCTTTAGTGCTAG | 0.22 z-score
GACGGTTTCCTTTTCCTGATGTGCTAG | 1.2 z-score

Series 3
Cell line: HEK-293T/ACE2
Observed: pseudovirus infection
Organism: VSV pseudotyped with SARS-CoV-2 spike
Concentration: concentration not given
Reference: vehicle-treated
Compound | GFP-positive cells
COc1cc2c(cc1OC)CC(=O)N(CCCN(C)C[C@H]1Cc3cc(OC)c(OC)cc31)CC2.Cl | 81.2%
C=CC(=O)N1CCC[C@@H](n2nc(-c3ccc(Oc4ccccc4)cc3)c3c(N)ncnc32)C1 | 145%
C[C@@H](O)[C@H]1C(=O)N2C(C(=O)O)=C(S[C@@H]3CN[C@H](CNS(N)(=O)=O)C3)[C@H](C)[C@H]12.O | 92.7%
CCCS(=O)(=O)Nc1ccc(F)c(C(=O)c2c[nH]c3ncc(-c4ccc(Cl)cc4)cc23)c1F | 93.5%

Series 4
Target: Replicase polyprotein 1ab, nsp13 helicase (rep, Severe acute respiratory syndrome coronavirus 2, UniProt P0DTD1)
Action: inhibitor
Concentration: 20 µM
SMILES | inhibition [%]
Cc1ccc(NC(=O)CCCCCC(=O)Nc2ccccc2N)cc1 | 2.69
CC(C)NCCCn1c(Sc2cc3c(cc2I)OCO3)nc2c(N)ncnc21 | 4.84
Cn1ncc2c(N3CCOCC3)nc(-c3cccc(O)c3)nc21 | 6.76
NCc1ccccc1CC(=O)N[C@@H]1C(=O)N2C(C(=O)O)=C(CSc3nnnn3CC(=O)O)CS[C@H]12 | 36.2
C[C@@H]1CN(Cc2ccc(F)cc2)[C@@H](C)CN1C(=O)c1cc2c(C(=O)C(=O)N(C)C)cn(C)c2cc1Cl | 1.89
Cc1cc(Cn2cnc3c2C[C@@H](C(=O)O)N(C(=O)C(c2ccccc2)c2ccccc2)C3)ccc1N(C)C | 2
Nc1nc2ccc(Cl)cc2c2nc(-c3ccco3)nn12 | 5.94
Cc1ccc(NC(=O)c2cccc(C(C)(C)C#N)c2)cc1Nc1ccc2ncn(C)c(=O)c2c1 | 4.32
COc1cc(N2CCC(O)CC2)ccc1Nc1cc(Nc2ccccc2S(=O)(=O)C(C)C)c2cc[nH]c2n1 | 4.35
CC(NC(C)(C)C)C(=O)c1cccc(Cl)c1 (centres unmarked) | 6.82
CC(C)[C@H](N)C(=O)OCCOCn1cnc2c(=O)nc(N)[nH]c21 | 2.13
COc1ccc2cccc(N3CCN(CCNC(=O)c4ccc(F)cc4)CC3)c2c1 | -1.56
Cc1c(N(C)C)c(=O)n(-c2ccccc2)n1C | 0.44
Cc1nc(C#Cc2ccnc(Cl)c2)c(C)n1-c1ccc(OC(F)(F)F)cc1 | 99.6
O=C(c1c2ccccc2cc2ccccc12)N1CCC(N2CCC[C@@H](C(=O)N3CCOCC3)C2)CC1 | 6.66
COc1ccccc1C1(O)CCN(CCCn2c3ccccc3c3ccccc32)CC1 | 11.2
Cn1ncnc1[C@H]1c2n[nH]c(=O)c3cc(F)cc(c23)N[C@@H]1c1ccc(F)cc1 | 0.36
CCS(=O)(=O)N1CCC[C@@H]2CN3CCc4cc(OC)ccc4[C@@H]3C[C@@H]21 | 0.28
CC(C)(C(=O)c1cccnc1)c1cccnc1 | 3.24
Cc1cccc(C)c1-n1c(=O)c2cnc(Nc3ccc(N4CCN(C)CC4)cc3)nc2n2c3ccccc3nc12 | 34.6
CC1(C)CCC2=C(O1)c1ccccc1C(=O)C2=O | 10.7
OCCN(CCO)c1nc(N2CCCCC2)c2nc(N(CCO)CCO)nc(N3CCCCC3)c2n1 | 2.66
Cc1ccnc(NS(=O)(=O)c2ccc(N)cc2)n1 | 3.9
C[C@H]1O[C@@H](n2cc(F)c(=O)[nH]c2=O)[C@H](O)[C@@H]1O | 3.12
CN(C)c1nc(N(C)C)nc(N(C)C)n1 | 4.19

Series 5
Target: Replicase polyprotein 1ab, main protease (rep, Severe acute respiratory syndrome coronavirus 2, UniProt P0DTD1)
Observed: enzyme activity
Action: inhibitor
Concentration: 20 µM
Setting: primary screen
SMILES | inhibition
Oc1cc(O)c2cc(O)c(-c3cc(O)c(O)c(O)c3)[o+]c2c1 | 40.7%
COc1ccc([N+](=O)[O-])c(S(=O)(=O)c2ccc(Cl)cc2)n1 | 58.4%
O=S(=O)(O)c1cc(I)c(O)c2ncccc12 | 27.7%
CN1C2=CC(=O)/C(=N\NC(N)=O)C=C2CC1S(=O)(=O)O (centres unmarked) | 25.4%
O=C(O)C(O)Cc1ccc(O)c(O)c1 (centres unmarked) | 94.8%

Excerpt of the above (series 2):
Oligonucleotide | log fluorescence
TGAGGACTGCTTATCCTTTAGTGCTAG | -0.294 z-score
GACGATCTCAGTATCGATACGTGCTAG | 6.8 z-score
GACGGATTGCTTATCCTGACGTGCTAG | -0.424 z-score
TTAGGTTTCCTTTCCATTTAGTGCTAG | 2 z-score
TCATCTCTTGTTCTCTCACTGTGCTAG | 0.744 z-score
TTAGATCTCCTTCTCCTTTAGTGCTAG | 0.22 z-score
GACGGTTTCCTTTTCCTGATGTGCTAG | 1.2 z-score
